# Results of several laboratories.
# A part holds a random share of what one study measured. Changes are numbered by the printed parent chain.

# Study 1
# Target: CCND1, cyclin fold, Cln2 fusion (human)
# Technique: yeast growth competition, sequencing
# Sample: yeast
# Setting: strong parent motif
# Relative to: not given
# Direction: higher = stronger binding
# Parent: PKN2 docking peptide (human); VSAVRKLDFSDTM; partner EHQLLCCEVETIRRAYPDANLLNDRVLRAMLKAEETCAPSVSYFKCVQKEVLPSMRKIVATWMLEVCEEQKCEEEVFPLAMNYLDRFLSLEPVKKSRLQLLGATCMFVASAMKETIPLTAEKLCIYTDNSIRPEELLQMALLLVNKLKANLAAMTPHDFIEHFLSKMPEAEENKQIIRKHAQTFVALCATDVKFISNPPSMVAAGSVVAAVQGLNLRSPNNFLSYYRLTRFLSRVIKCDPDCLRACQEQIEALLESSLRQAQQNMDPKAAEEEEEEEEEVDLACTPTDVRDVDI
Change,normalised enrichment score
K6A,3.35
R5M,3.03
T12G,5.28
S10H,3.98
F9R,-0.0355
D11G,5.34
L7W,0.203
T12F,5.82
F9N,-0.145
L7P,-0.139
F9K,-0.00877
F9T,0.0327
R5F,0.953
L7Q,0.124
D11W,3.59
S2K,4.83
D11R,3.73
K6L,2.98
K6G,0.803
D8I,2.79
D11P,4.93
A3L,1.01
S10W,2.65
D11S,4.87
S10E,5.13

# Study 2
# Target: Ras GTPase-activating protein-binding protein 1, C-terminal RGG region (G3BP1, Homo sapiens, UniProt Q13283)
# Sequence of UniProt Q13283 (whole entry, looked up): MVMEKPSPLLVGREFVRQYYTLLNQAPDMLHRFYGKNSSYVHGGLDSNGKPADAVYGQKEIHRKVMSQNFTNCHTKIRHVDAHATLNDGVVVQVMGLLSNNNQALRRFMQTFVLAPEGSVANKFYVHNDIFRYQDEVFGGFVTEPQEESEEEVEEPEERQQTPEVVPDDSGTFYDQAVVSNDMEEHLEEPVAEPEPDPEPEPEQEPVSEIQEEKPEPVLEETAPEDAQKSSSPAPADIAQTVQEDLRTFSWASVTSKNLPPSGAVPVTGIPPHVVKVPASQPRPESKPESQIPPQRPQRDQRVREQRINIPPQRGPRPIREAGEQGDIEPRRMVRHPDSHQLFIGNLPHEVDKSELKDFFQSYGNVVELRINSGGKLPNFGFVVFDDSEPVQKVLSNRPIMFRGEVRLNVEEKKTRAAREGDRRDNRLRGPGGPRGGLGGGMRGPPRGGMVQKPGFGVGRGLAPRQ
# Technique: RNA Bind-n-Seq
# Molecule type: RNA
# Sample: in vitro
# Concentration: 1 µM
# Setting: whole 134-nt RNA, ends assumed
# With: 150 mM KCl
# Relative to: input library
# Direction: higher = stronger binding
Oligonucleotide,log2 enrichment
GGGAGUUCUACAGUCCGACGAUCCCUCAAGUCCUGUGCUACACAUCGUAUGUACCGAAUCGGGGCGGGGCGGCGGGAAAGUAUUAUGUUACGCCGUUCGGAUCUGCACUUCCAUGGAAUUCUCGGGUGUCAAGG,-0.298
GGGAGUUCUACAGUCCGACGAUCUCAAGUCCUGUGCUACACAUCGUAUGUACCGAAUCGGGGAAGGGAAGGGAAGGGAAAGUAUUAUGUUACGCCGUUCGGAUCUGCACUUCCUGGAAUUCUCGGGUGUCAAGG,2.48
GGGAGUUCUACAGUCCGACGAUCGUAAGUGUGGCAAUGUGAACUGAAGCUGAUGGGCUGAGAACAUGGACUGAGCUUGUGGUGUGCUUUGCAGGAGGACUUGAAGCAGAGUUCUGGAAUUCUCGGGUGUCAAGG,1.44
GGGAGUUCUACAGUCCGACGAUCCCUGUGCUACACAUCGUAUGUACCGAAUCGGGGUGGGGUUUUUUUGGGGUUUUUUUGGGGAAAGUAUUAUGUUACGCCGUUCGGAUCUGCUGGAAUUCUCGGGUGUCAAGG,0.00146
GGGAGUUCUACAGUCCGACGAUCUGGGAGGUGGAUUUUGUUUAUUUUUUUAGCUCAUUUCCAGGGGUGGGAAUUUUUUUUUGAUAUGUGUCAUGAAUAAAGUUGUUUUUGAAAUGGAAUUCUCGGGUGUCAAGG,3.33
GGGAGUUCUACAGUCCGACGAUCACCAUGCAGGUGGGCAUCUUUGGGAAGUGGGGCAAGGGGGGGAUAGGGAGGGGGGUAACACUUUGGGAACAGGUGGUCCCAGGACGUUUCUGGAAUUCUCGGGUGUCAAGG,1.82
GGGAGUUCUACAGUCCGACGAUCGUCCUGUGCUACACAUCGUAUGUACCGAAUCGGGAAAAAGGGGAAAAAGGGAAAAAGGAAAGUAUUAUGUUACGCCGUUCGGAUCUGCACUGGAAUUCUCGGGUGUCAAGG,-1.06
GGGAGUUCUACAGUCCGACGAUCCAAGUCCUGUGCUACACAUCGUAUGUACCGAAUCGGGUUUUUGGGUUUGGGAGGGAAAGUAUUAUGUUACGCCGUUCGGAUCUGCACUUCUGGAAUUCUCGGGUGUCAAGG,1.41
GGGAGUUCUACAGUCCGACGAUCACCAUGCAGGUGGGCAUCUUUGGGAAGUGGGGCAAGGGGGGGAUAGGGAGGGGGGUACCACUUUGGGAACAGGUGGUCCCAGGUCGUUUCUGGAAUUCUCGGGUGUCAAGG,2.52

# Study 3
# Target: PABPC1L2, full length, GST fusion (mouse, UniProt A0ABA7IW68)
# Technique: RNAcompete
# Molecule type: RNA
# Sample: in vitro
# Concentration: 20 nM
# Setting: 7-mer, probes averaged, single round
# Relative to: mean of 7-mers
# Direction: higher = stronger binding
# Construct (chain): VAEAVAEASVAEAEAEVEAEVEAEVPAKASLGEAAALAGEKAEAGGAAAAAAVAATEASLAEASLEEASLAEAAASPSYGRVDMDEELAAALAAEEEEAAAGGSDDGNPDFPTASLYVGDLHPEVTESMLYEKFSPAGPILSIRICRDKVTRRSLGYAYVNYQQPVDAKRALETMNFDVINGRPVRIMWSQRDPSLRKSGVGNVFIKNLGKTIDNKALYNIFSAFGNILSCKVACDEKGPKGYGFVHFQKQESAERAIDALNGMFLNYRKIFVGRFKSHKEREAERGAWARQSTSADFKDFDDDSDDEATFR
Oligonucleotide,7-mer Z-score
AUUGGCU,-0.0953
UUUUGGG,-0.0681
GGCCCUA,-0.199
CAUUAAG,-0.0536
AGUACCU,0.00254
GGACCAA,0.119
CUAGAUU,-0.0989
GGCCCCU,-0.423
UAUAAAC,1.87
GGGUUUG,-0.306
AUUCGCA,-0.248
GGGCCCC,-0.443
UCAUCCU,-0.432
CCAGGUA,-0.157

# Study 4
# Target: RNA binding protein fox-1 homolog 2, RRM domain, GST-SBP tag (RBFOX2, Homo sapiens, UniProt O43251-10, residues 100-194)
# Technique: RNA Bind-n-Seq
# Molecule type: RNA
# Sample: in vitro
# Concentration: 365 nM
# Setting: natural RNA segment, single round, ends assumed
# Relative to: no-protein control
# Direction: higher = stronger binding
# Construct (chain): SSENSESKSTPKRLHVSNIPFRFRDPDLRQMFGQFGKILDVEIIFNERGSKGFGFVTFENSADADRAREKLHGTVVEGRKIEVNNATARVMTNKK
Oligonucleotide,RBNS enrichment (R)
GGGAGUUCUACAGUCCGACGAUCACCACUACAAUGUCUGUCCUUGGGAAGGUAGCAAGACCUGAAGAUUGGAGAUGUCAGGGUCCAUAAGAUGCUUUUUUAGUCUUCAGAAUACCGAGCUACUGGUCCUAAGAUGGAAUUCUCGGGUGCCAA,0.534
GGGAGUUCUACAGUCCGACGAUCGACCGUGUUUGGAGGCUUCUGGUAUCCUAAACACCAAGAUCCACUCAGCCCUGUGCCCUGAUGAUGUCCCUGGCCUGUGAAUUCUGUCCUUGACUGACCCGUGCUCCUGGUGGAAUUCUCGGGUGCCAA,0.256
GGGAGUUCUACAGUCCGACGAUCUGGAACGUGCCCCAGAAUGAGGCAGUUGGCAAACUUCUCAGGACAAUGAAUCCUUCCCGUUUUUCUUUUUAUGCCACACAGUGCAUUGUUUUUUCUACCUGCUUGUCUUAUGGAAUUCUCGGGUGCCAA,1.67
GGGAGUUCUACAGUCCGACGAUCACCCUCCCAGCGAGUUGCGCUGGGAGACGCUGGCGCCAGGGCCUGCCGGCGCGGGGAGGAAAGCAAAAUCCAACUAAUGGUAUAUAUUGUAGGGUACAGAAUAGAGCGUGUGGAAUUCUCGGGUGCCAA,0.449
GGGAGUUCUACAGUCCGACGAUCUCUGGAUCUAGAAGGGACCAUAAGAGGAGUAGGCCCUGGUUCCUGCUGUCCUGGUGGCUGGGCCCAGCAGGGGCCCUCACUCUUGAAGUCCAGGACUGGGUCUGACCUGGUGGAAUUCUCGGGUGCCAA,0.279
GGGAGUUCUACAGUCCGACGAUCAAAUGCCAGUUUGGCAAACUCAGCACUCCUGUUCCCUGCUCAGGUAUAUGCGAUCUCUACCGAGAAGCAAGCACAAAAGUAGACAAAAGUAUUAAUGAGUAUUUCCUUUCUGGAAUUCUCGGGUGCCAA,0.341
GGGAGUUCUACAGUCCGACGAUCCUUUUGUUUCCUGUAAACAGUGGUUGCAUGUGUAGGAAGUAACAAGCGAGUAUUCAGAUCAUACGAGGAGGCGUUCCUCGGUGCAUGACGGUCAGAUGGCCAUUUAUCAGUGGAAUUCUCGGGUGCCAA,42.8
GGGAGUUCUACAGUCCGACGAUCGCUCCCGCUUCUGCUCUGCUUGGGCUCACAGGUAUGCACUGGCUGGGUGUGGAUGAGUAUUUUUCUGACCCCAGCCCUGCAGUGGAACCUAAUAAAAGCACCUGAAGCGAUGGAAUUCUCGGGUGCCAA,0.389

# A few entries again (study 1):
Change,normalised enrichment score
F9T,0.0327
R5F,0.953
L7Q,0.124
D11W,3.59
S2K,4.83
